Measured values pooled from the literature.
A part holds a random share of what one study measured. Substitutions count along the parent as printed.

Block 1 — technique: protein binding microarray; molecule type: double-stranded DNA, one strand shown; matrix: in vitro; concentration: not given; reference: not given; reading: higher = stronger binding; measurement: E-score
Target: Histone acetyltransferase KAT6A, both winged helices, GST fusion (KAT6A, Homo sapiens, UniProt Q92794, residues 1-181)
Setting: 8-mer, flanks averaged, mean of 2 arrays, mostly near background
Target sequence (chain): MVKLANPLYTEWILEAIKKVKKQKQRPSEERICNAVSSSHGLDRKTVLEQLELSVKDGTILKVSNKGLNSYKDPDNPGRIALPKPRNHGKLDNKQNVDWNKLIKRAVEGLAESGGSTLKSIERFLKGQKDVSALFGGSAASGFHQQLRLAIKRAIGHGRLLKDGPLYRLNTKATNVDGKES
ATACATCA: -0.184
ATTAGTGG: -0.127
AGTTATCG: 0.0233
CACTTAGC: -0.0678
CTCACCGA: -0.0865
ATTGGAAC: -0.0286
GGTGCTTA: -0.00122
GTTTGGAA: -0.137
AAACGAGC: -0.0831
CTTCGGAA: 0.178
CGGCACCG: 0.344
CAGGTGCG: 0.104
ACCAGTCC: -0.0183
CCTGGAGC: -0.0746
ACTAGACT: -0.0298
GCACCCAA: -0.0312
AGTTCTAC: -0.132
CCTTGCGC: 0.18
CCCAACTC: -0.166
CACAAGGG: -0.00402
CTGCTTAC: -0.114
AGACTATA: -0.0185
ACGATTAT: 0.0655
AATGCACG: 0.0635
AGAAGATG: -0.0739

Block 2 — technique: DHFR PCA, deep sequencing; matrix: yeast; added: (+)-ABA 17 µM; reference: wild-type fitted maximum; reading: higher = stronger binding; measurement: relative binding score
Target: ABI1, truncated, D143A, DHFR fusion (Arabidopsis thaliana)
Setting: methotrexate growth selection, single substitutions
Starting sequence: PYL1, truncated, DHFR fusion (Arabidopsis thaliana); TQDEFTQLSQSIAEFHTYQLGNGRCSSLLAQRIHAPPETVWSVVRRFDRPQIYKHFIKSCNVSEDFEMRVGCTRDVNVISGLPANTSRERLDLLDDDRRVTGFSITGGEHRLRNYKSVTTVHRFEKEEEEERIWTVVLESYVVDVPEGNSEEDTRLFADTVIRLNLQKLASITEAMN
R69D: 68.2%
I33H: -4.41%
I105D: -14.4%
R49T: 77.2%
P36N: 75.7%
G107W: 2.54%
I57P: -19.6%
N165Y: -24%
L138T: 1.71%
S80T: 72.8%
Q167P: -6.75%
E109Y: 39%
V78M: 62.3%
V78Y: 60.3%
D75T: 94.8%
F157H: -2.93%
F66A: 72.1%
R88F: 86.1%
V118G: -18.5%
V100Y: 15.7%
V118D: 6.58%
G21Q: 81.5%
Y115A: 0.873%

Block 3 — technique: protein-binding microarray; molecule type: double-stranded DNA, one strand shown; matrix: in vitro; concentration: not given; reading: higher = stronger binding; measurement: E-score
Target: Protein C-ets-1 (ETS1, Homo sapiens, UniProt P14921, residues 1-441, K379A, full length assumed)
Setting: k-mer, scored over probes, only values ≥0.25
Target sequence (chain): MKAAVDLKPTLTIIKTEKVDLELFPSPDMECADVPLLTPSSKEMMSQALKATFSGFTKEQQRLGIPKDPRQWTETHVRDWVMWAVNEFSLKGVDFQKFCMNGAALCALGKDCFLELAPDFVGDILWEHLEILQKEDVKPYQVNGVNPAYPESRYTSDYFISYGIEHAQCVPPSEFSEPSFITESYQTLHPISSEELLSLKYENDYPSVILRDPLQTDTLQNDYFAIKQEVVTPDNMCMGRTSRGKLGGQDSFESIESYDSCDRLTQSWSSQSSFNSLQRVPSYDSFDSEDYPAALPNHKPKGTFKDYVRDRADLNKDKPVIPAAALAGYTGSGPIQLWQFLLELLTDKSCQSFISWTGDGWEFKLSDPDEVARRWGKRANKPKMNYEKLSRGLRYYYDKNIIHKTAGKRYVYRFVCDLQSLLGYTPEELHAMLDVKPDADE
ACAACCGT: 0.278
GGGCGGAA: 0.322
CACCCCGG: 0.26
ACCGGGGG: 0.474
TACTACGA: 0.252
ACGCGTAA: 0.261
CACCGGTA: 0.444
CACATGTA: 0.267
CTTCCGCA: 0.275
CGGTAAAG: 0.262
AACCGGGT: 0.3
GGTACTAC: 0.252
CTTCAATA: 0.34
ACGTTAGA: 0.269
CGGTTAAC: 0.296
CGTCGGTC: 0.269
CCGCACCC: 0.302
ATTTGCCG: 0.269
ACCCCGGA: 0.265
ATATTAAC: 0.261
ACCGGTCG: 0.364
CACATTTC: 0.285

Block 4 — organism: Saccharomyces cerevisiae; read-out: binding; technique: competitive growth deep sequencing; molecule type: peptide; strain: cyclin D3-Cln2 fusion strain; concentration: concentration not given; setting: RxL motif peptides; reading: direction not given; measurement: growth enrichment score
TSACRSLFGPVDH: 0.0566
PCHRRVLCFDSTT: 0.174
SRIRRELFIEEIQ: 0.293
VAPRRVLFADEAL: 0.124
PPAKRRLELGESG: 0.105
ICAKRSLCAAFSV: 0.144
TKVRRNLFNQELL: 0.0691
VKTKKRLNFDDKV: 0.107
TLKGRRLVFDNQL: 0.12
GSPLKKLFTSTGL: 0.0805

Block 5 — technique: RNA Bind-n-Seq; molecule type: RNA; matrix: in vitro; concentration: 365 nM; reference: no-protein control; reading: higher = stronger binding; measurement: RBNS enrichment (R)
Target: RNA binding protein fox-1 homolog 2, RRM domain, GST-SBP tag (RBFOX2, Homo sapiens, UniProt O43251-10, residues 100-194)
Setting: natural RNA segment, single round, ends assumed
Target sequence (chain): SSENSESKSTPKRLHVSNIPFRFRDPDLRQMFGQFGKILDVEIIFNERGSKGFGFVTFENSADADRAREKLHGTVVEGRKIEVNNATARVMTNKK
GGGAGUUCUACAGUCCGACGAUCCUACUUGGAUAAAGAAUUUAAAUGGAAUUACGUAUAAAUUAAUAUAAAAUGAUUACCUCUGGUGUUGACAGGUUGAACUUGCACUCUUAAGGAACAGCCAUAACCCUCCGUGGAAUUCUCGGGUGCCAA: 1.36
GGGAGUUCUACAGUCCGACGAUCCUUUCUGCCUGGGAUGUCUGCUGCAAAAGCAGUGACCUCUGACCCCUGGUGACCUUUGCUCUCGGCACCGGGCCUGUUUCCUUUGCUUUGAGUGCCUUUUUGAACGCUGCUGGAAUUCUCGGGUGCCAA: 1.17
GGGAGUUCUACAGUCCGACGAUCGUUUCACCUUCCCUCGACUUGACCCUUUCCUCCCCCAGCGUCAGUUUCACUCCCUCUUGGUUUUUAUCAAAUUUGCCAUGACAUUUCAUCUGGGUGGUCUGAAUAUUAAAUGGAAUUCUCGGGUGCCAA: 0.605
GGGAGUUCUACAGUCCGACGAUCAUCUUAGAGGAGGGAAGAAGAGAGAGAGACCCAAUGGUAGAACCAGAAUCAGGGAGAUGACUGAACUACUGAAAAACAGGUUCCCUUGUAUUUAGGAUCUUAAGGUGUAUUGGAAUUCUCGGGUGCCAA: 1.25
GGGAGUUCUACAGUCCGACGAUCAUACUUAGUGCUGCUGGGUAAUUUGUUGGUAUAUUAUCUGGUUAGUGGUUAAUGCUUCCUUUAAAAAUAAUUGAGUCAUCCAUUCACUCUUUUUCAGUUUUAUCUGUCAAUGGAAUUCUCGGGUGCCAA: 0.438
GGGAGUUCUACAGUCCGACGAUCAGUCUAGGGAAUUUAUUUGGUAUUUGUAAGGCAAGAGGUGAUUUCUCUCUAAUAUAUCUGAGUUAUUGCUCAUUUAAAACUGUUAAGUCCAGUAUAAUUUUCCCUGAUAUUGGAAUUCUCGGGUGCCAA: 0.407
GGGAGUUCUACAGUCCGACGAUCACACACACAGACCACACGUGCACACAGCACUCCAUAUGCAACUCUGUAUUCUUGCCAAAGAUUUCCUUUAAACAAGAGCACUUUUACCCAAUGGCUCUUUUGUGAAUGAUUGGAAUUCUCGGGUGCCAA: 1.13
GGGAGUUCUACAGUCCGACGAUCUUACUUCAUGAGAUCUUUGCUGGAAAUUAAUGAGAAGGGUCAGUGUUUGUGACUUAUGGGCUUAUUUUACAGACAAGAUGAGAGUUACCACUCUAAGAAAACAAACAGCAUGGAAUUCUCGGGUGCCAA: 1.62
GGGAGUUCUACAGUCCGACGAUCCAUGCUUAAAGAAGUAAGAAAUCUUUUGUGGAUAUGUAAUUAUACAUAUAAAGUAUAUAUAUAUGUAUGAUACAUGAAAUAUAUUUAGAAAUGUUCAUAAUUUUAAUGGAUGGAAUUCUCGGGUGCCAA: 0.672
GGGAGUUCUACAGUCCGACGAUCAAGAGAUAUAAACUCUAGAGUGAGUCUAUUGGGAAUCAGCAGAUUAUACAUACCUGGGGCAUCUUCUCAACUAGUGCGCAGGAGCACCAGGUAGAGGCAGCUGUGUGUGGUGGAAUUCUCGGGUGCCAA: 0.277
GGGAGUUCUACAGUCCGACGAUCGUGUGGUAGGACUUGGAGGAGAAAUCCCCUGGACUUUCACUAACCCUCUGACAUACUCCCCACACCCAGUUGAUGGCUUUCCGUAAUAAAAAGAUUGGGAUUUCCUUUUGUGGAAUUCUCGGGUGCCAA: 0.563
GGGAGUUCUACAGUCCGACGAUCUCUACCAUAGCCAUGUGGUGCAAUGCAAACUGCUGUAAUUCAAGAGAGGAAAUUUCCUCACCUCCCAAUUCUGUGUAAUCAAGAAUACCUCCUUAAUUCUGAGAGCAUGAUGGAAUUCUCGGGUGCCAA: 2.27

A few entries again (block 2):
I105D: -14.4%
R49T: 77.2%
P36N: 75.7%
G107W: 2.54%
I57P: -19.6%
N165Y: -24%
L138T: 1.71%
S80T: 72.8%
Q167P: -6.75%
E109Y: 39%
V78M: 62.3%
V78Y: 60.3%
D75T: 94.8%
